Assay results pooled from the literature.
Lines come from different studies, so protocols differ. Numbers after ± are the reported error.
UniProt O95819, sequence (whole entry, looked up): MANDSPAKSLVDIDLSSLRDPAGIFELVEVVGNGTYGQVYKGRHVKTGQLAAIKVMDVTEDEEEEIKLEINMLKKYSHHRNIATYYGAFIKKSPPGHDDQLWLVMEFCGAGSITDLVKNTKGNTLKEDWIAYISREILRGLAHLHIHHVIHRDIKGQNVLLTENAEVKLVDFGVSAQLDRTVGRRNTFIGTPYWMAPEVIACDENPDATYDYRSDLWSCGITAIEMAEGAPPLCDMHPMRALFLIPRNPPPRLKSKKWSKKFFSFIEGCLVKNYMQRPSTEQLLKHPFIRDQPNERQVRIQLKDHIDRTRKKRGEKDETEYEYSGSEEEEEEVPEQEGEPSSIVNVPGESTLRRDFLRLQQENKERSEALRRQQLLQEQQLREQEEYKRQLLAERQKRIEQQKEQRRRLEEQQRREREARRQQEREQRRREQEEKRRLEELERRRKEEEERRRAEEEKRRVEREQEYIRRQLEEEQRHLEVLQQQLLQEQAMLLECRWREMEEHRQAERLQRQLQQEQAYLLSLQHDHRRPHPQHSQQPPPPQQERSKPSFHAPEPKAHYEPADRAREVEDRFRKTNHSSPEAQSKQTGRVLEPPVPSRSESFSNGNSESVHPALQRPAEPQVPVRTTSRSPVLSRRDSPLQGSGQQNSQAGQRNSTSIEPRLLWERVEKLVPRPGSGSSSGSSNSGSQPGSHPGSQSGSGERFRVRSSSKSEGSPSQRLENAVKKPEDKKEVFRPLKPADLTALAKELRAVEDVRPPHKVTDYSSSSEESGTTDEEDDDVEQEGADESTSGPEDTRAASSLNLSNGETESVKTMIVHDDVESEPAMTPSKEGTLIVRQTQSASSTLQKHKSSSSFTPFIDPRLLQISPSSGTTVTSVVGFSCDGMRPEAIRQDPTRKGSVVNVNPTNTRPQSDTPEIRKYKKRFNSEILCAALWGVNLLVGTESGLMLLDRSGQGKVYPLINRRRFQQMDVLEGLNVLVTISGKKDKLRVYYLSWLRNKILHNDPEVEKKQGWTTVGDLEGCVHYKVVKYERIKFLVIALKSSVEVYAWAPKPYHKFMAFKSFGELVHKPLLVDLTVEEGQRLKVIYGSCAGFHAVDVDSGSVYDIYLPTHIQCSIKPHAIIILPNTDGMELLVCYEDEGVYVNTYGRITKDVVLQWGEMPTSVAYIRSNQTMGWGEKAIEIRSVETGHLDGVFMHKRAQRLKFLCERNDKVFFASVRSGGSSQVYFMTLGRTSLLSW
UniProt Q92973, sequence (whole entry, looked up): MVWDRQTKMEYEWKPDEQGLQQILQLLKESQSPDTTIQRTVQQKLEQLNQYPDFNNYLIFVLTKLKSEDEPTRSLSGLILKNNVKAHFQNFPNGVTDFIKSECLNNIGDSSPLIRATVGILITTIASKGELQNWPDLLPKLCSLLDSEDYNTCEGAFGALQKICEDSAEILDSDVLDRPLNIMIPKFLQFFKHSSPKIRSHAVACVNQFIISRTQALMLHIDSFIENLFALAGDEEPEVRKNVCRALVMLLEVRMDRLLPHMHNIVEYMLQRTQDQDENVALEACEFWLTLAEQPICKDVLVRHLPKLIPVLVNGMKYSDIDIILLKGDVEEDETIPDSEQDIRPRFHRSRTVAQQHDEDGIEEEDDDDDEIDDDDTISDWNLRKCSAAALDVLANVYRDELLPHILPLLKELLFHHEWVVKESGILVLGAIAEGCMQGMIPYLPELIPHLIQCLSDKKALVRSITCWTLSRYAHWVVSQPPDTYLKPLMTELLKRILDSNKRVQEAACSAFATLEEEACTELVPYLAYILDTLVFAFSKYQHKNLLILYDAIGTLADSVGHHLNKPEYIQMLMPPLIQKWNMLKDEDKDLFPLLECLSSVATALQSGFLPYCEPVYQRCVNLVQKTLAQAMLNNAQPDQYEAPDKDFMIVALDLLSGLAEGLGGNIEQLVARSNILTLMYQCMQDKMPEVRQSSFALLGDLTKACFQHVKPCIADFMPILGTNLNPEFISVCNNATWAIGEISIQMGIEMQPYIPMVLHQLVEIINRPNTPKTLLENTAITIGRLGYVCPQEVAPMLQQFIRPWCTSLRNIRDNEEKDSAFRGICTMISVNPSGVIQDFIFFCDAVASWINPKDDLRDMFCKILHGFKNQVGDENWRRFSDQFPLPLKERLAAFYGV
UniProt P22894, sequence (whole entry, looked up): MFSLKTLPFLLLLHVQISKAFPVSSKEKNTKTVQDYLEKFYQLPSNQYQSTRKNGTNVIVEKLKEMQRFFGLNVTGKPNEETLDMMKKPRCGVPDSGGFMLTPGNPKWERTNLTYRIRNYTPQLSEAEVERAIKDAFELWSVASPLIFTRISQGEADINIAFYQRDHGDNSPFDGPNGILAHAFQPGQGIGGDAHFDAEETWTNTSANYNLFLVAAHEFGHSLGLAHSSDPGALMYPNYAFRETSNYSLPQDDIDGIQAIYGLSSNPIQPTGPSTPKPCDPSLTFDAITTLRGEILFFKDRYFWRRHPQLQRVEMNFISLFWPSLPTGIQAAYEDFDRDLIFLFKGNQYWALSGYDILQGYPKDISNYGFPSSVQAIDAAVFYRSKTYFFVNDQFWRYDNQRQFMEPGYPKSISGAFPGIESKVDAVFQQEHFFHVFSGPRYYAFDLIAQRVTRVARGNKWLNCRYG

COc1c(CCC[P+](c2ccccc2)(c2ccccc2)c2ccccc2)cc2c(c1OC)OCO2.[I-] has a TGI of -4.97 log M (MCF7; SRB).
CN1CCN(S(=O)(=O)c2cc([N+](=O)[O-])ccc2N(CCOS(C)(=O)=O)CCOS(C)(=O)=O)CC1 — result for “IC50 fold change”: 18.8 (sample B B-ALL PDX cells; cell viability; ex vivo; 48 h, with: AKR1C3 inhibitor; reference: with inhibitor over alone).
With Nc1ncnc2c1ncn2[C@@H]1O[C@@H]2COP(=O)(O)O[C@H]3[C@@H](O)[C@H](n4cnc5c(=O)[nH]cnc54)O[C@@H]3COP(=O)(O)O[C@H]2[C@H]1O the fold enrichment was 11.9 (HFF-1; RNA sequencing, item: Reactome Interferon gamma signaling; upregulated pathways; reference: mock).
With CN1CCN(C2(CNC3CCN(c4cccc(-c5cc6cc(F)ccc6[nH]5)c4)CC3)CCC2)CC1 the CC50 was 7.23 µM (SK-MEL-2).
Cn1cncc1C1=CN(c2ncnc3[nH]cnc23)CCS1 has a CC50 of 97.7 µM (BT-549).
For C[C@H]1CN(c2n[nH]c3nc(N[C@H]4CC[C@H](NS(=O)(=O)CCC(F)(F)F)CC4)ncc23)CCO1, the relative abundance was 0.97 (Transportin-1 (TNPO1, Homo sapiens, UniProt Q92973); inhibitor, Kinobeads competition profiling; 0.032 µM; reference: vehicle).
Nc1ncc(-c2nc(N3CCOCC3)nc(N3CCOCC3)n2)c(C(F)F)n1 has a GI50 of 0.092 µM (CCRF-CEM; 72 h).
COc1cc(CCC[P+](c2ccccc2)(c2ccccc2)c2ccccc2)c(OC)c2c1OCO2.[I-] gave an LC50 of -4.52 log M (UACC-62; SRB).
COc1ccc(N2C(=O)N(c3c(C)cccc3Cl)Cc3cnc(Nc4ccc(C5CCN(C)CC5)cc4OC)nc32)nc1 gave an inhibition of 29% (MAP4K4 (Homo sapiens, UniProt O95819); kinase activity; 0.5 µM).
For COc1ccc2c(c1)[nH]c1c(C)nccc12, the methylation reduction was 3.83% (DU-145; bisulfite pyrosequencing, item: RASSF1A promoter CpG site 8; concentration not given; reference: vehicle).
For C[C@H]1[C@H](C)CC[C@]2(C(=O)O)CC[C@]3(C)C(=CC[C@@H]4[C@@]5(C)CC[C@H](O)C(C)(C)[C@@H]5CC[C@]43C)[C@H]12, the cell survival was 73.33 ± 0.52% (MCF7; cell growth, MTT; 7.25 µg/mL, 48 h).
CC(C)N1CCC(NC2CCN(c3cccc(-c4cc5cc(F)ccc5[nH]4)c3)CC2)CC1 gave a CC50 of 7.89 µM (CCRF-CEM).
O=C1CCP(=S)(c2ccccc2)CC1: “early apoptotic cells” 4.2% (HaCaT; annexin V/PI flow cytometry; IC50, 72 h).
With COc1cc(Nc2ncc(F)c(Nc3ccc4c(n3)NC(=O)C(C)(C)O4)n2)cc(OC)c1OC the IC50 was > 10 µM (MMP8 (Homo sapiens, UniProt P22894); metalloproteinase-8).
The toxicity of COc1ccc(-n2nc(C(C)=O)s/c2=N\N=C(/C)c2ccc(NC(C)=O)cc2)cc1 is reported as 96% (WI-38; 5 µM).
The cell survival of CC(C)=CCc1c(O)cc(O)cc1-c1cc2ccc(O)c(CC=C(C)C)c2o1 is reported as 51.4 ± 0.92% (3T3; cell growth, MTT; 50 µg/mL, 48 h).
Under “log2 fold change”, CC[C@H](C)[C@@H]1NC(=O)[C@@H]2CCCN2C(=O)[C@H](CC(C)C)NC(=O)[C@H](CC(C)C)NC(=O)CNC(=O)[C@@H](NC(=O)[C@@H](NC(=O)[C@H](CC(=O)O)NC(=O)CNC(=O)[C@@H](NC(=O)[C@H](C)NC(=O)CNC(=O)[C@H](CCCCN)NC(=O)[C@H](CC(C)C)NC(=O)[C@H](CC(C)C)NC(=O)[C@H](CCCCN)NC(=O)CNC(=O)[C@@H](NC(=O)[C@@H](N)CC(C)C)C(C)C)C(C)C)C(C)C)CSSC[C@@H](C(=O)O)NC1=O is recorded as -2.73 (RNA-seq, item: Slamf7; mouse, traumatic brain injury model, frontal cortex and hippocampus; dose not given; reference: TBI alone).
Oc1cc(O)cc(-c2cc3ccc(O)cc3o2)c1 has a cell survival of 57.58 ± 0.42% (MCF7; cell growth, MTT; 50 µg/mL, 48 h).
For COc1cc2c(Oc3ccc4[nH]c(C)cc4c3F)ccnc2cc1OCC1(N)CC1, the Hematuria incidence was 0% (paediatric refractory sarcoma patients; 8 mg).
Oc1ccc(C2(c3ccc(O)cc3)c3ccccc3-c3ccccc32)cc1: “S phase cells” 8.08 ± 2.46% (HepG2 spheroids; Hoechst flow cytometry; 0.1 µM, 24 h).
CO[C@H]1C[C@@H]2CC[C@@H](C)[C@@](O)(O2)C(=O)C(=O)N2CCCC[C@H]2C(=O)O[C@H]([C@H](C)C[C@@H]2CC[C@@H](OC(=O)NCCOCCOCCOCCOCCOCCOCCOCCOCCC(=O)N3CCc4cc(Cn5nc(-c6ccc7oc(N)nc7c6)c6c(N)ncnc65)ccc4C3)[C@H](OC)C2)C[C@@H](O)[C@H](C)/C=C(\C)[C@@H](O)[C@@H](OC)C(=O)[C@H](C)C[C@H](C)/C=C/C=C/C=C/1C has a TRAE incidence of 12.5% (phase 1 dose escalation, item: rash; advanced solid tumour patients; intravenous, 10 mg weekly, any grade).
With COc1c(C)c2c(c(O)c1C/C=C(\C)CCC(=O)O)C(=O)OC2 the IC50 was 0.162 µM (JEG-3; cell proliferation).
